Results collected from several papers.
Each line is one published result; not all experiments were run side by side. “And” joins repeats or separate records; there may be more than shown. Numbers after ± are the reported error.
CYP2C9: Cytochrome P450 2C9 (CYP2C9, Homo sapiens, UniProt P11712)
Metallo-beta-lactamase type 2: Metallo-beta-lactamase type 2 (Serratia marcescens, UniProt P52699)

CN[C@@H](C)C(=O)N[C@H](C(=O)N1C[C@@H](NC(=O)COCCOCCOCc2cn(CCNC(=O)CN(Cc3cccs3)C(=O)[C@H](NS(=O)(=O)c3cc4ccc(O)nc4cc3Cl)c3ccccc3OC)nn2)C[C@H]1C(=O)N[C@@H]1CCCc2ccccc21)C1CCCCC1 — IC50 (OGT (Homo sapiens, UniProt O15294); enzyme activity, inhibitor, fluorescence): 550 nM
C=C(NC(=O)C(=C)NC(=O)c1csc(C2=NC3c4csc(n4)C4NC(=O)c5csc(n5)C(C(C)(O)C(C)O)NC(=O)C5CSC(=N5)C(=CC)NC(=O)C(C(C)O)NC(=O)c5csc(n5)C3(CC2)NC(=O)C(C)NC(=O)C(=C)NC(=O)C(C(C)C)NC2C=Cc3c(C(C)O)cc(nc3C2O)C(=O)OC4C)n1)C(N)=O (stereo not drawn) — IC50 (Proteasome subunit beta type-7, in 20S proteasome (PSMB7, Homo sapiens, UniProt Q99436); trypsin-like activity, inhibitor; purified human 20S proteasome; 37 °C, 15 min preincubation, added: Boc-Leu-Arg-Arg-AMC): 840 ± 40 nM
CCCCCc1cc(O)c2c(c1)OC(C)(C)C1CCC(C(=O)OC3OC(C(=O)O)C(O)C(O)C3O)=CC21 (stereo not drawn) — IC50 (CYP2C9; inhibitor; 30 min preincubation without NADPH): 15000 ± 2400 nM
CC[C@H](C)[C@@H]1NC(=O)[C@H]([C@@H](C)O)NC(=O)CNC(=O)[C@H](CCCNC(=N)N)NC(=O)[C@H](CC(C)C)NC(=O)[C@@H]2CSSC[C@H](NC1=O)C(=O)N[C@H](C(=O)N[C@@H](CO)C(=O)NCC(N)=O)CSSC[C@H](NC(=O)[C@H](C)N)C(=O)N[C@@H](C)C(=O)N[C@@H](Cc1c[nH]c3ccccc13)C(=O)N2 — IC50 (Chymotrypsinogen B (Homo sapiens, UniProt P17538); enzyme activity, inhibitor, absorbance; pH 7.4): 108 nM
CC(C)C[C@H](NC(=O)[C@@H](CCCCN)NC(=O)[C@H](Cc1c[nH]cn1)NC(=O)[C@H](CO)NC(=O)[C@H](Cc1c[nH]c2ccccc12)NC(=O)[C@H](Cc1c[nH]cn1)NC(=O)[C@@H]1CCC(=O)N1)C(=O)N[C@@H](CCCNC(=N)N)C(=O)N1CCC[C@H]1C(=O)NCC(N)=O — IC50 (Gonadotropin-releasing hormone receptor (Rattus norvegicus, UniProt P30969); binding, radioligand displacement; WPE-1-NB26-3 expressing Gonadotropin-releasing hormone receptor, whole cells; added: radioiodinated GnRH analogue): 5.1 ± 0.3 nM
CN(C)C(=O)C1CN1S(=O)(=O)c1ccc(N(C)C)cc1 (stereo not drawn) — IC50 (PDIA3 (Homo sapiens, UniProt P30101); enzyme activity, inhibitor, absorbance; pH 7.6): 200000 nM
CC(=O)NC1C(OC2OC(CC(O)C3OC(n4ccc(=O)[nH]c4=O)C(O)C3O)C(O)C(O)C2NC(=O)COCc2ccc(N3CCC(Oc4ccc(OC(F)(F)F)cc4)CC3)cc2)OC(CO)C(O)C1O (stereo not drawn) — IC50 (Putative glycosyltransferase MJ1113 (Methanocaldococcus jannaschii, UniProt Q58513); enzyme activity, inhibitor; Methanococcus jannaschii enzyme): 250 nM
C[C@]1(COC(=O)Cc2ccc(O)c(O)c2)[C@H](C(=O)O)N2C(=O)/C(=C/c3ccccn3)[C@H]2S1(=O)=O — IC50 (Beta-lactamase (ampC, Pseudomonas aeruginosa, UniProt P24735); inhibitor; added: nitrocefin): 6.1 ± 1.9 nM
O=C1C(P(=O)(O)O)CC(O)N1O (stereo not drawn) — IC50 (Alpha-enolase (ENO1, Homo sapiens, UniProt P06733); enzyme activity, inhibitor): 14 nM
CNCP(C)(=O)O — IC50 (Urease subunit alpha, with UreA, UreB (ureC, Proteus mirabilis, UniProt P17086); whole-cell urease activity, inhibitor; 15 min preincubation, pH 5.5, 37 °C, added: 5 mM urea): 36000 ± 3000 nM
CNC(=O)NC(=N)NCCC[C@@H]1NC(=O)[C@@H](C)NC(=O)C[C@@H](C(=O)O)NC(=O)C[C@@H](C(=O)O)NC(=O)[C@H](Cc2ccccc2)N(C)C1=O — IC50 (Endochitinase B1 (Aspergillus fumigatus, UniProt Q873X9); enzyme activity, inhibitor, fluorometric; 10 min, pH 5.5, 37 °C, added: 20 µM 4-MU-chitobiose): 29 nM
CNC(=O)CNc1cnc2ccc(-c3ccc(OC)c(OC)c3)cc2n1 — IC50 (Phosphatidylinositol 4-kinase (Cryptosporidium parvum, UniProt Q5CVD3); enzyme activity; added: ATP 3 µM): 7300 ± 841 nM
CCCCC[N+](CCCCC)(CCCCC)CCCCC — IC50 (Kcnk2 (Rattus norvegicus, UniProt Q920B6, L189C); ion current, inhibitor, inside-out patch clamp): 120000 ± 18000 nM
CCCn1nnc(-c2cccc(NC(=O)[C@H](C)CS)c2)n1 — IC50 (Metallo-beta-lactamase type 2; inhibitor; 10 min preincubation, added: FC5 substrate): 1230 nM
CC12CC(O)C3C(CCC4(O)CC(O)CC(O)C34CO)C1(O)CCC2C1=CC(=O)OC1 (stereo not drawn) — IC50 (porcine Na+/K+-ATPase; enzyme activity, colorimetric phosphate release): 669 nM
O=c1c(Cl)c(Cl)cnn1Cc1ccccc1 — IC50 (Disulfide bond formation protein B (Escherichia coli, UniProt P0A6M2); DsbA oxidation; aerobic growth): 8500 ± 600 nM
CC(=O)N[C@@H](CCCNC(=N)N)C(=O)N[C@H](C(=O)N1CCC[C@H]1C(=O)N[C@@H](COP(=O)(O)O)C(=O)N[C@@H](CC(C)C)C(=O)N1CCC[C@H]1C(=O)N[C@@H](C)C(=O)N1CCC[C@H]1C(c1ccccc1)c1ccccc1)[C@@H](C)O — IC50 (YWHAZ (Homo sapiens, UniProt P63104); peptide binding, inhibitor, competitive fluorescence polarization; 10 µM protein, added: 100 nM FAM-labelled diphosphorylated Tau peptide): 5300 nM
O=C(NC12CC3CC(CC(C3)C1)C2)c1cc2cc(Cl)ccc2[nH]1 — IC50 (CYP2C9; inhibitor): 6300 nM
N#Cc1cn([C@@H]2O[C@H](CSCC[C@H](N)C(=O)O)[C@@H](O)[C@H]2O)c2ncnc(N)c12 — IC50 (PRMT9 (Homo sapiens, UniProt Q6P2P2); enzyme activity, inhibitor, radiometric): 39000 nM
C[C@H](CS)C(=O)Nc1cccc(-n2nccn2)c1 — IC50 (blaNDM-1 (Klebsiella pneumoniae, UniProt C7C422); enzyme activity, inhibitor, fluorescence; with preincubation): 2100 nM
NC[C@@H]1O[C@H](O[C@H]2[C@@H](O)[C@H](O[C@@H]3[C@@H](O)[C@H](N)C[C@H](N)[C@H]3O[C@H]3O[C@H](CN)[C@@H](O)[C@H](O)[C@H]3N)O[C@@H]2Cn2cc(CCCc3cn(C[C@H]4O[C@@H](O[C@@H]5[C@@H](O)[C@H](N)C[C@H](N)[C@H]5O[C@H]5O[C@H](CN)[C@@H](O)[C@H](O)[C@H]5N)[C@H](O)[C@@H]4O[C@H]4O[C@@H](CN)[C@@H](O)[C@H](O)[C@H]4N)nn3)nn2)[C@H](N)[C@@H](O)[C@@H]1O — IC50 (HIV-1 TAR RNA; Tat peptide binding, FRET competition; pH 7.4, 25 °C): 60 ± 8 nM
CC(C)C[C@H](NC(=O)CNC(=O)[C@@H](N)Cc1c[nH]c2ccccc12)C(=O)N1CCC[C@H]1C(=O)O — IC50 (DPP4 (Homo sapiens, UniProt P27487); enzyme activity, inhibitor, absorbance): 263000 nM and < 300000 nM
CC[C@H](C)[C@@H]1NC(=O)[C@H](CC(C)C)NC(=O)[C@H](C)NC(=O)[C@H](CCCNC(=N)N)NC(=O)[C@H](CC(C)C)NC(=O)[C@H]([C@@H](C)O)NC(=O)[C@H](CCCNC(=N)N)NC(=O)[C@@H]2CCCN2C(=O)[C@H](Cc2c[nH]cn2)NC(=O)[C@H](CC(C)C)NC(=O)[C@H]([C@@H](C)CC)NC(=O)[C@H]([C@@H](C)CC)NC(=O)[C@H](Cc2ccccc2)NC(=O)[C@H](Cc2ccc(O)cc2)NC(=O)CSC[C@@H](C(=O)NCC(N)=O)NC(=O)[C@H]([C@@H](C)CC)NC(=O)[C@H](C(C)C)NC1=O — IC50 (NNMT (Homo sapiens, UniProt P40261); enzyme activity, inhibitor, mass spectrometry): 772 nM
CC(C)NCc1ccc(C[C@@H]2NC(=O)[C@@H](Cc3c[nH]c4ccccc34)NC(=O)[C@H](Cc3ccccc3)NC(=O)[C@H](Cc3ccccc3)NC(=O)[C@H](CCCCN)NC(=O)[C@@H](NC(N)=O)CSSC[C@@H](C(=O)O)NC(=O)[C@H](CO)NC(=O)[C@H]([C@@H](C)O)NC(=O)[C@H](Cc3ccc(O)c(I)c3)NC(=O)[C@H]([C@@H](C)O)NC2=O)cc1 — IC50 (SSTR2 (Homo sapiens, UniProt P30874); ligand displacement, radioligand; cell membranes): > 1000 nM
CC[C@H](C)[C@@H]1NC(=O)[C@H](CCCNC(=N)N)NC(=O)[C@H](CC(N)=O)NC(=O)[C@@H]2CSSC[C@@H](C(=O)NCC(=O)N[C@@H](CCCCN)C(=O)N[C@@H](C)C(N)=O)NC(=O)[C@H](CCCCN)NC(=O)[C@H](CCCCN)NC(=O)[C@H](Cc3c[nH]c4ccccc34)NC(=O)[C@H](CSSC[C@H](NC(=O)[C@H](CC(C)C)NC(=O)[C@H](C)N)C(=O)N[C@@H](CC(N)=O)C(=O)N2)NC(=O)[C@H](CCC(N)=O)NC(=O)[C@H](Cc2c[nH]cn2)NC(=O)[C@@H]2CCCN2C(=O)[C@H]([C@@H](C)CC)NC(=O)[C@H]([C@@H](C)CC)NC1=O — IC50 (Kcnj6/Kcnj3 (Mus musculus, UniProt P48542+P63251); ion current, inhibitor, two-electrode voltage clamp; Xenopus laevis oocytes; -80 mV, 20 mM K+, added: Gbeta1gamma2 activation): 34 ± 2 nM
Cc1cc([C@H](NC(=O)c2cnccc2-c2ccc(C(F)(F)F)cc2)C(=O)N(C)C)cc(C(F)(F)F)c1 — IC50 (NKG2-D type II integral membrane protein, with ULBP6 (KLRK1, Homo sapiens, UniProt P26718); ligand binding, inhibitor, TR-FRET; HEK293 expressing NKG2D and DAP10; added: ULBP6-AF647): 400 ± 300 nM
Cn1nnnc1-c1cccc(NC(=O)CCS)c1 — IC50 (Metallo-beta-lactamase type 2; inhibitor; 10 min preincubation, added: FC5 substrate): 1540 nM
CN(C)C(=O)[C@@H](NC(=O)c1cc(-c2ccnn2C)ccc1-c1ccc(C(F)(F)F)cc1)c1cccc(C(F)(F)F)c1 — IC50 (NKG2-D type II integral membrane protein, with MICA (KLRK1, Homo sapiens, UniProt P26718); ligand binding, inhibitor, TR-FRET; HEK293 expressing NKG2D and DAP10; added: MICA-Alexa647): 300 ± 100 nM
CC(=O)N[C@H]1CSCc2ccccc2CSC[C@@H](C(=O)O)NC(=O)[C@H](CCC(=O)O)NC(=O)[C@H](Cc2ccccc2)NC(=O)[C@@H]2CCCN2C(=O)[C@H](CC(N)=O)NC1=O — IC50 (EH domain-containing protein 1, EH domain (Homo sapiens, UniProt Q9H4M9)): 34000 ± 3800 nM
NC[C@@H](CC[C@H](N)C(=O)O)C[C@H]1O[C@@H](n2cnc3c(N)ncnc32)[C@H](O)[C@@H]1O — IC50 (N6-adenosine-methyltransferase catalytic subunit, with METTL14 (METTL3, Homo sapiens, UniProt Q86U44); enzyme activity, inhibitor, radiometric; METTL3-METTL14 complex): 3400 nM
O=C(Nc1ccccc1NC(=O)c1cccc(Cl)c1)c1cccc(Cl)c1 — IC50 (lasR (Pseudomonas aeruginosa, UniProt P25084); reporter gene, antagonist; Escherichia coli, JLD271 with LasR plasmid; added: OdDHL 2 nM): 70000 nM
O=C(COc1ccc2c(c1O)C(=O)c1ccccc1C2=O)c1ccccc1 — IC50 (Gag-Pol polyprotein, reverse transcriptase (gag-pol, Human immunodeficiency virus 1, UniProt P03366, Y780C); enzyme activity; Y181C reverse transcriptase): > 100000 nM
CC(=O)Nc1ccc2ccn(-c3cc(NC4CCC4)n4ncc(C#N)c4n3)c2c1 — IC50 (CSNK2A1 (Homo sapiens, UniProt P68400); target engagement in cells, BRET): 12.6 nM

Excerpt of the above:
C[C@]1(COC(=O)Cc2ccc(O)c(O)c2)[C@H](C(=O)O)N2C(=O)/C(=C/c3ccccn3)[C@H]2S1(=O)=O — IC50 (Beta-lactamase (ampC, Pseudomonas aeruginosa, UniProt P24735); inhibitor; added: nitrocefin): 6.1 ± 1.9 nM
O=C1C(P(=O)(O)O)CC(O)N1O (stereo not drawn) — IC50 (Alpha-enolase (ENO1, Homo sapiens, UniProt P06733); enzyme activity, inhibitor): 14 nM
CNCP(C)(=O)O — IC50 (Urease subunit alpha, with UreA, UreB (ureC, Proteus mirabilis, UniProt P17086); whole-cell urease activity, inhibitor; 15 min preincubation, pH 5.5, 37 °C, added: 5 mM urea): 36000 ± 3000 nM
